Earlier results, collected from citations in different studies.
Compare with care: the assays were run in different laboratories. Values after ≈ are worked out from the molar mass of the structure shown.
Organism: Staphylococcus aureus

Compound	test	test system	conditions	endpoint	result
O=C(COc1cccc2ccccc12)Nc1ccccc1[N+](=O)[O-]	–	–	–	MIC	62.5 µg/mL (≈ 194 µM)
Nc1ncnc2c1ncn2[C@@H]1O[C@H](COS(=O)(=O)NC(=O)CCC(=O)c2ccccc2C(=O)O)[C@@H](O)[C@H]1O	–	MRSA ATCC BAA-1762	–	MIC	31.2 µg/mL (≈ 56.8 µM)
CC(C)=CCc1cc2c(cc1O)OC[C@H]1c3ccc(O)c(CC=C(C)C)c3O[C@@H]21	–	including MRSA	–	MIC	0.78 to 1.56 µg/mL (≈ 1.99 to 3.97 µM)
CCCCCCc1cc(-c2cc(Cl)sc2Cl)[nH]c(=O)c1C#N	–	–	–	MIC	2.4 µg/mL (≈ 6.76 µM)
O=c1cc(-c2ccccc2)c2cc(Br)ccc2n1Cc1nnc2n1N=C(c1ccccc1)CS2	–	–	–	MIC	1 µg/mL (≈ 1.89 µM)
NC(=O)c1c(F)ccc(OCc2nc3cc(Cl)cnc3s2)c1F	–	–	–	MIC	1 µg/mL (≈ 2.81 µM)
Cc1cccc2nc3c(O)c(Br)c(Cl)c(Br)c3nc12	–	MRSA	–	MBEC	2.35 µM
CCn1cc(C(=O)NCCNCCO)c(=O)c2cc(OCc3ccc(C(F)(F)F)cc3)c(Cl)cc21	growth	MRSA ATCC 43300	–	MIC	16 µg/mL (≈ 31.3 µM)
CC1=C[C@@H](C)[C@H]2[C@@H]3C(=O)C(Cl)(Cl)C(=O)[C@H](C)C(=O)O[C@@H](C)/C=C/C=C\[C@@H](C)[C@@H]3C=C[C@@H]2C1	–	–	–	MIC	0.006 µg/mL (≈ 0.0125 µM)
CCc1nc(N)nc(N)c1C#CC(C)c1cc(-c2ccncc2)ccc1OC (racemic)	–	–	–	MIC	≤ 0.625 µg/mL
Oc1c(Br)cc(I)c2nc3cc(Cl)c(Cl)cc3nc12	–	MRSA	–	MBEC	6.25 µM
CC1=C(C(=O)NNC(N)=S)C(c2ccc(Cl)cc2)C(C(=O)NNC(N)=S)=C(C)N1	–	–	concentration not given	inhibition zone diameter	25 mm
NC(=O)c1c(F)ccc(OCc2nc3cc(Cl)cnc3s2)c1F	–	Smith, mouse, infection	subcutaneous, single dose	ED50	7 mg/kg
